Results collected from several papers.
Numbered parts are unrelated; each lists some results of a single study. Substitutions count along the parent as printed.

Series 1
Target: RNA binding protein fox-1 homolog 2, RRM domain, GST-SBP tag (RBFOX2, Homo sapiens, UniProt O43251-10, residues 100-194)
Technique: RNA Bind-n-Seq
Molecule type: RNA
Matrix: in vitro
Tested at: 365 nM
Setting: natural RNA segment, single round, ends assumed
Baseline: no-protein control
Direction: higher = stronger binding
Target sequence (chain): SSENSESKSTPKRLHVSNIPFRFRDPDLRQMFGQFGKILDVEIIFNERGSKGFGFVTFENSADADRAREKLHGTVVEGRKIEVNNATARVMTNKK
`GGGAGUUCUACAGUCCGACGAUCUGAUUUAAACUCUGGAGUCAAAGCUAGUGUGUGUGUCUGUCUUUGCUCCUGCUAAGACAUGGAAACAAGUAUUGGAACCUCCAGAGUGUUUAAAUGGCUAUUGAAAUUUAUGGAAUUCUCGGGUGCCAA`: “RBNS enrichment (R)” 0.325.
`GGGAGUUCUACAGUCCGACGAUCGGUGGGGGCUUCACAAGCAACAUCACUCCCCUCAACAGAACGCAAUGGAAAGAAAGCAUCCCCCCACCCCCUCUGGGUUCGAGCGUUCACCGUCUCCGCACUGUGCCUGCUGGAAUUCUCGGGUGCCAA`: “RBNS enrichment (R)” 0.869.
Under “RBNS enrichment (R)”, `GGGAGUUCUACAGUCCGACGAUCCUGACUAACAAAUCGAAUGUAAAGUUGGGAAUGUUUGGUUCUGUGUAUGCAGACACAUGAGCUGUGGGGUAACAAUCAAAACGUAAUCUUUCAUAGAUAGCCAUUACAUUUGGAAUUCUCGGGUGCCAA` is recorded as 0.416.
For `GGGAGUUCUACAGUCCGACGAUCAAAAGACAGUUUUCCAUCCUACAGUAAUUGGGAUGAAGAACAAAACAGUUGAUCCUUGUAAAUACAUUAUGCAGAAUAUUUAUUUUUCUUAAAAUGUAUUUUCACAACCCUGGAAUUCUCGGGUGCCAA`, “RBNS enrichment (R)” read 0.293.
For `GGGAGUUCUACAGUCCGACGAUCGAAUUUAUGCUUUCUCAAGAUGUUGAACAUGAGCGUCUCUUUGACCUCAUUCAGAAAAUGUUGGAGUAUGAUCCAGCCAAAAGAAUUACUCUCAGAGAAGCCUUAAAGCAUGGAAUUCUCGGGUGCCAA`, “RBNS enrichment (R)” read 1.07.
`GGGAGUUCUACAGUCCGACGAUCUUGGACACAGGAAAUGUUGAUAGAUAUUUCGUUAAAUUGGUGAGUUUGGUAAUAUGUUAGCUCUCAUUGGACAAGAUAGACGCCAUAUAGGAGGCUGAGGGUUAGGACACUGGAAUUCUCGGGUGCCAA` — result for “RBNS enrichment (R)”: 0.6.
`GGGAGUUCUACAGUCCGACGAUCAGCCCACAGCCCGCACUGCCGGCUCACUUGGGUCCUUCCUCGAUAGCUUUGGGCAGAGCCCUUGCUUCCUGGCUGCUUCAGGGCUCAGGGGCUCCCAGCCCUCCUUCCCAUGGAAUUCUCGGGUGCCAA`: “RBNS enrichment (R)” 0.233.
`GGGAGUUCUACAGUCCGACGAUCGAAGCAAUGUUAAAUCAUUCAGGUUUUAUUUUCUGCCCUGAAGCAGAAAUUUAAAAAAUGAUAUUGGGACCUGGAAGGUUUAAUAUGGUUCACAGUGCCUGAAUUACACCUGGAAUUCUCGGGUGCCAA` — result for “RBNS enrichment (R)”: 0.463.
`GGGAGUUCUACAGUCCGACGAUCGGUCCUUGCUGUGACCUGUGCCCAGGAGGGUGUGAUCCGAUUGAAGCCUCAGGUGUCAGAGAGUAAGCUAUAGUGAAAGAUGCCUGGCUCGGCCUGGGGCUAAAAGGACUUGGAAUUCUCGGGUGCCAA` — result for “RBNS enrichment (R)”: 0.439.
`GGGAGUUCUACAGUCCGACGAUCUCCACCCCUGGCCUCUUCCGUAUUUGCUGUUAUCUGCUCCCUCUUUCCUGAGGGGCCUCAGGGCAUUGGAGGGGGCCGACACCCCUCCACUAAAGAUUGAGUGAGGUCUCUGGAAUUCUCGGGUGCCAA` — result for “RBNS enrichment (R)”: 0.295.
`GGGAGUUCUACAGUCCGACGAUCAUCUCUGCGCCUUUCUGGGGGCGGGCAAGCUGGCGGUAGAUUUGUGAUGUCACAGUGCAAACUGCAGUGACUGUAAAUUGGCCUGGCGUGUAUAAACGUUUUCAGGGAAUUGGAAUUCUCGGGUGCCAA`: “RBNS enrichment (R)” 0.417.
`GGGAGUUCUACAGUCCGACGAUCUAUCUAUAUGUGUGUAUACAUAUAUAAUAUAUACACACAGAUACAAGUGUACACACACACACCACACACCACACACACCCCACUGGCAGUCUUUGUGGAUUAGGAUGGGGUGGAAUUCUCGGGUGCCAA`: “RBNS enrichment (R)” 0.436.

Series 2
Target: PABPC1L2, full length, GST fusion (mouse, UniProt A0ABA7IW68)
Technique: RNAcompete
Molecule type: RNA
Matrix: in vitro
Tested at: 20 nM
Setting: 7-mer, probes averaged, single round
Baseline: mean of 7-mers
Direction: higher = stronger binding
Construct (chain): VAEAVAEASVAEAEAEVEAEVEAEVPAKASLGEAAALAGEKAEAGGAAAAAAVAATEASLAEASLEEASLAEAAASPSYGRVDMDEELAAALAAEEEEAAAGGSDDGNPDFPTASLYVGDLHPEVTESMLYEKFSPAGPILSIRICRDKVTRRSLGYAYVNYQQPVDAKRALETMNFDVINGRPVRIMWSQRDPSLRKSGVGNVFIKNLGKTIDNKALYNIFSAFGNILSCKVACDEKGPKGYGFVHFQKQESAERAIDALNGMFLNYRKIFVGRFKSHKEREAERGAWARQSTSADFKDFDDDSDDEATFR
`CCGCAAC` has a 7-mer Z-score of -0.215.
`UUUUAAG` has a 7-mer Z-score of 0.126.
For `UCAGCCA`, the 7-mer Z-score was -0.179.
For `GGUUUGU`, the 7-mer Z-score was -0.485.
With `CACGUCC` the 7-mer Z-score was -0.278.
For `AUGUCCG`, the 7-mer Z-score was -0.173.
With `UGACACU` the 7-mer Z-score was -0.151.
For `CAAGUGA`, the 7-mer Z-score was -0.0863.
The 7-mer Z-score of `GAUGUAA` is reported as 0.108.
`GUCCCGU` gave a 7-mer Z-score of -0.338.
The 7-mer Z-score of `UGUAUUU` is reported as -0.177.
The 7-mer Z-score of `AUGUGGU` is reported as -0.108.
For `UCCUUAA`, the 7-mer Z-score was -0.219.
The 7-mer Z-score of `GUCACCG` is reported as -0.0736.
`CAACUGA` has a 7-mer Z-score of -0.012.
The 7-mer Z-score of `GGGGCUU` is reported as 0.173.
`AGUCCCC` gave a 7-mer Z-score of -0.287.
`GCAUCGC` gave a 7-mer Z-score of -0.293.
The 7-mer Z-score of `UAAGCCU` is reported as -0.273.
The 7-mer Z-score of `ACGACUC` is reported as -0.164.
With `CCCGGCU` the 7-mer Z-score was -0.389.
The 7-mer Z-score of `CUUUAUC` is reported as -0.26.

Series 3
Target: CCND1, cyclin fold, Cln2 fusion (human)
Technique: yeast growth competition, sequencing
Matrix: yeast
Setting: strong parent motif
Baseline: not given
Direction: higher = stronger binding
Starting sequence: CDKN1A docking peptide (human); SKACRRLFGPVDS; partner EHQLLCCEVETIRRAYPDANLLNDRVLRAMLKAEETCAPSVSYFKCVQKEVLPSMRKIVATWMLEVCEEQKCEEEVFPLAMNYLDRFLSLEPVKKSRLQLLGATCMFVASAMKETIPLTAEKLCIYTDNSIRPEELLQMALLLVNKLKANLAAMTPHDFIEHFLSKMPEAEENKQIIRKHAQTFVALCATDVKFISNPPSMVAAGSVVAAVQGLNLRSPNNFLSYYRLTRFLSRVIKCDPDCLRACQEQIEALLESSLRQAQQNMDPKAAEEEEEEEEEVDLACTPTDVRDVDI
Under “normalised enrichment score”, `SKACYRLFGPVDS [R5Y]` is recorded as 0.515.
`SKACKRLFGPVDS [R5K]`: “normalised enrichment score” 0.856.
`SKACRMLFGPVDS [R6M]` — result for “normalised enrichment score”: 2.67.
For `SKACRRLLGPVDS [F8L]`, “normalised enrichment score” read -0.252.
`SFACRRLFGPVDS [K2F]`: “normalised enrichment score” 1.35.
Under “normalised enrichment score”, `SKACRRLFGPVAS [D12A]` is recorded as 1.59.
`SKACVRLFGPVDS [R5V]` — result for “normalised enrichment score”: 0.726.
`SKACRDLFGPVDS [R6D]`: “normalised enrichment score” 0.717.
For `SMACRRLFGPVDS [K2M]`, “normalised enrichment score” read 1.97.
For `SKHCRRLFGPVDS [A3H]`, “normalised enrichment score” read 0.524.
`SKACRRSFGPVDS [L7S]`: “normalised enrichment score” -0.0665.
`SKACRILFGPVDS [R6I]`: “normalised enrichment score” 3.19.
For `SKGCRRLFGPVDS [A3G]`, “normalised enrichment score” read 0.439.
Under “normalised enrichment score”, `SKACRRLMGPVDS [F8M]` is recorded as 0.0563.
For `SKDCRRLFGPVDS [A3D]`, “normalised enrichment score” read -0.063.
For `SSACRRLFGPVDS [K2S]`, “normalised enrichment score” read 3.29.
Under “normalised enrichment score”, `SQACRRLFGPVDS [K2Q]` is recorded as 2.01.
Under “normalised enrichment score”, `SKCCRRLFGPVDS [A3C]` is recorded as 1.68.
`AKACRRLFGPVDS [S1A]` — result for “normalised enrichment score”: 1.25.
`SKACRRLFGPTDS [V11T]` — result for “normalised enrichment score”: 3.72.
`SHACRRLFGPVDS [K2H]` — result for “normalised enrichment score”: 2.6.
`SCACRRLFGPVDS [K2C]` — result for “normalised enrichment score”: 1.67.
`SKACRTLFGPVDS [R6T]` — result for “normalised enrichment score”: 1.36.
Under “normalised enrichment score”, `SKACDRLFGPVDS [R5D]` is recorded as -0.0992.
`SKACRRLFVPVDS [G9V]`: “normalised enrichment score” 2.57.

Series 4
Target: Histone acetyltransferase KAT6A, winged helix 2, GST fusion (KAT6A, Homo sapiens, UniProt Q92794, residues 85-181)
Technique: protein binding microarray
Molecule type: double-stranded DNA, one strand shown
Matrix: in vitro
Tested at: not given
Setting: 8-mer, flanks averaged, mean of 2 arrays, mostly near background
Baseline: not given
Direction: higher = stronger binding
Construct (chain): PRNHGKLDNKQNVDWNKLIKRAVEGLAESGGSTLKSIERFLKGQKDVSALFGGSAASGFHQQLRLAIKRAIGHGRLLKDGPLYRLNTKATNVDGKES
The E-score of `CACTGGAC` is reported as 0.12.
`ACCGAGGT` gave an E-score of 0.0193.
For `TGAGGCAA`, the E-score was 0.033.
`CTGCCTGA` has an E-score of 0.059.
With `CGGGCACG` the E-score was 0.148.
With `CCCTTAAA` the E-score was 0.022.
For `TCTGACAA`, the E-score was 0.112.
The E-score of `ATTCGCGC` is reported as 0.115.
With `AGAGGACC` the E-score was -0.172.
With `CAAGTCTA` the E-score was -0.0972.
The E-score of `ACTCGATG` is reported as 0.109.
`ACTGGTGC` gave an E-score of 0.0515.
`GATGCGGA` gave an E-score of 0.0205.
For `AACTCCTT`, the E-score was -0.157.
`AGGTGCTG` gave an E-score of 0.0933.
With `GATTTTCA` the E-score was 0.00187.
`AGGAAAAA` has an E-score of 0.137.
With `AAATGCAC` the E-score was -0.0371.
`AATTTACT` gave an E-score of -0.0798.
With `AGGGGGAT` the E-score was -0.171.
`CCTTAAAG` gave an E-score of -0.0893.
For `GGCATTAA`, the E-score was -0.00146.
The E-score of `AGAAGGAG` is reported as -0.24.
The E-score of `ACGGCAGT` is reported as 0.115.
With `GAGACCTA` the E-score was -0.0563.
